{"data": "Assay results pooled from the literature", "note": "A part holds a random share of what one study measured.", "chain of UniProt Q8IZF4 (whole entry, looked up)": "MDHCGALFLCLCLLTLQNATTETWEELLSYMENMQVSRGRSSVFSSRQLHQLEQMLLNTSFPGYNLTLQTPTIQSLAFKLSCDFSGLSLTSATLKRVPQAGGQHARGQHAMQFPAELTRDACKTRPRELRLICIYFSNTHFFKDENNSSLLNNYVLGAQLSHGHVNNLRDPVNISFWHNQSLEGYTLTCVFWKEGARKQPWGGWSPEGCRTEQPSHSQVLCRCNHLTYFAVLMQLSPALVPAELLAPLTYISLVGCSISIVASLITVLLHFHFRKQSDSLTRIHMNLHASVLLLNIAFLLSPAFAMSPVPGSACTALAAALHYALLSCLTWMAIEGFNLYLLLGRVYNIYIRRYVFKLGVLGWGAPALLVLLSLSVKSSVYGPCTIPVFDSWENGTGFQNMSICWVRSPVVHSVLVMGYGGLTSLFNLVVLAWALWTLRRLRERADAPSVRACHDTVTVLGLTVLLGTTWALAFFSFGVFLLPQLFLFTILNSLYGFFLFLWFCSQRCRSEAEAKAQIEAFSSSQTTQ", "chain of UniProt O75716 (whole entry, looked up)": "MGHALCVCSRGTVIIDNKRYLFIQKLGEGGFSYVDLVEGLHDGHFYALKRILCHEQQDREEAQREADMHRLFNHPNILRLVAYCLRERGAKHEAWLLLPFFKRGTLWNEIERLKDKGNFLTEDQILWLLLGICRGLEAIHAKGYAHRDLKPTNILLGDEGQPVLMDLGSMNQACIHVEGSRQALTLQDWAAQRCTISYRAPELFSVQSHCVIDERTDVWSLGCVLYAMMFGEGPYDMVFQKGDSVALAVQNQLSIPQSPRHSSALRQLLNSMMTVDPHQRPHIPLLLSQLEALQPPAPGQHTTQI", "chain of UniProt P28223 (whole entry, looked up)": "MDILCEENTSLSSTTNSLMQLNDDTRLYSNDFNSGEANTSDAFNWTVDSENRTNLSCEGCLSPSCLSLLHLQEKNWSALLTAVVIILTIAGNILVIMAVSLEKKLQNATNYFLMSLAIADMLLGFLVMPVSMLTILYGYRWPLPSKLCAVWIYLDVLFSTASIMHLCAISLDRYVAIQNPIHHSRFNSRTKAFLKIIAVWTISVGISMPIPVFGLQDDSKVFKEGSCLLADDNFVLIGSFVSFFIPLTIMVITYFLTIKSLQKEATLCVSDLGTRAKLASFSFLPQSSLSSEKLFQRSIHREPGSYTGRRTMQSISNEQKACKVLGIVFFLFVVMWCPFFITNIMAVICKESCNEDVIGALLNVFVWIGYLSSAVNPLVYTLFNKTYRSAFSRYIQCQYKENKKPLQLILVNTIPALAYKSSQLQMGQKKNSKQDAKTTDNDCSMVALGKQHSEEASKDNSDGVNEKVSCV", "chain of UniProt P47898 (whole entry, looked up)": "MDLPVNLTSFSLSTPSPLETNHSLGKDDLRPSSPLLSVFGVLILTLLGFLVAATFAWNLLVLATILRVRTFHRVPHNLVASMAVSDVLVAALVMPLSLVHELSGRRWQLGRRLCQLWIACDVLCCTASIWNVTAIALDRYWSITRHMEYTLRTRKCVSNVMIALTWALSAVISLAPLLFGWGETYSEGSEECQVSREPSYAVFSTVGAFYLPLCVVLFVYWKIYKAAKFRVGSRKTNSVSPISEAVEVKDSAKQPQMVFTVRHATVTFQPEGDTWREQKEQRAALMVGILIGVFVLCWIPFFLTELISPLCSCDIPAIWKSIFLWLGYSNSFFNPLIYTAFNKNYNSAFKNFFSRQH", "chain of UniProt P28222 (whole entry, looked up)": "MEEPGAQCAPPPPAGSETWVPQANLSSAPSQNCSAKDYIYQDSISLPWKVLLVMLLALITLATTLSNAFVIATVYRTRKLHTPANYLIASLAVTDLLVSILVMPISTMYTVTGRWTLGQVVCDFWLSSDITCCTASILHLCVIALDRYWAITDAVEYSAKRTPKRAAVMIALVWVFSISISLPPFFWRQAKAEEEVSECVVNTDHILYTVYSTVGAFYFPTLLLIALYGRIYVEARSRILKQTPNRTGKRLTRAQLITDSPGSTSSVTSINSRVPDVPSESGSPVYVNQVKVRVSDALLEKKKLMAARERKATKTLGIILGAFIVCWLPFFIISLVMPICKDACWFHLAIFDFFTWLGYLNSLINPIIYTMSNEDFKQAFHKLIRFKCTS", "chain of UniProt P23945 (whole entry, looked up)": "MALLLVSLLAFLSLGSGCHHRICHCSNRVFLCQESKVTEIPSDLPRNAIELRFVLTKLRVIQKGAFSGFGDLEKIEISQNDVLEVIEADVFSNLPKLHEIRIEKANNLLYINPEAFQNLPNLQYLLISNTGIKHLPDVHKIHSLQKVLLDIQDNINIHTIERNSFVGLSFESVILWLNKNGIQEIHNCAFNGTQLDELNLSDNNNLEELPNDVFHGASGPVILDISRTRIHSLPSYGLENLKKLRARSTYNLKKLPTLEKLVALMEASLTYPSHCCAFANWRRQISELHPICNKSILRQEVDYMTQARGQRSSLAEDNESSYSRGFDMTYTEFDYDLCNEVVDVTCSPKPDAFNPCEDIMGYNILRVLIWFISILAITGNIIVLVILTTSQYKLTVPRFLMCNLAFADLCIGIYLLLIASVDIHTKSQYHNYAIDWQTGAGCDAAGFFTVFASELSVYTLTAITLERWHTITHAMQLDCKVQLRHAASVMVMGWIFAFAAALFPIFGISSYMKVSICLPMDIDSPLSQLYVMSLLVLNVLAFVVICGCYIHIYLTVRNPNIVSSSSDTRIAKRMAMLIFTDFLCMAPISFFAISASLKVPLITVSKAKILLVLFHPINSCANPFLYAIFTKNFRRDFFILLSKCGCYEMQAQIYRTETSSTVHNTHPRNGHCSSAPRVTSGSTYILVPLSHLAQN", "chain of UniProt O00155 (whole entry, looked up)": "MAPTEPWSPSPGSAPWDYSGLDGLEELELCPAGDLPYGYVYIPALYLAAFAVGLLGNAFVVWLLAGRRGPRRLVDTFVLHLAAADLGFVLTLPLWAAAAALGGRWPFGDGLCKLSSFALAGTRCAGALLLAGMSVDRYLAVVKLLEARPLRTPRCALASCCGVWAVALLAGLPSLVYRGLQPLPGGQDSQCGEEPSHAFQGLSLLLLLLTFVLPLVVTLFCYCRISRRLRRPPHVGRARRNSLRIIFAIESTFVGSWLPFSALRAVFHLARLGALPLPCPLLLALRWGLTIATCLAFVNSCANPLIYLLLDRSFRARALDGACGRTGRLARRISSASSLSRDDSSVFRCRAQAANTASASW", "chain of UniProt P54760 (whole entry, looked up)": "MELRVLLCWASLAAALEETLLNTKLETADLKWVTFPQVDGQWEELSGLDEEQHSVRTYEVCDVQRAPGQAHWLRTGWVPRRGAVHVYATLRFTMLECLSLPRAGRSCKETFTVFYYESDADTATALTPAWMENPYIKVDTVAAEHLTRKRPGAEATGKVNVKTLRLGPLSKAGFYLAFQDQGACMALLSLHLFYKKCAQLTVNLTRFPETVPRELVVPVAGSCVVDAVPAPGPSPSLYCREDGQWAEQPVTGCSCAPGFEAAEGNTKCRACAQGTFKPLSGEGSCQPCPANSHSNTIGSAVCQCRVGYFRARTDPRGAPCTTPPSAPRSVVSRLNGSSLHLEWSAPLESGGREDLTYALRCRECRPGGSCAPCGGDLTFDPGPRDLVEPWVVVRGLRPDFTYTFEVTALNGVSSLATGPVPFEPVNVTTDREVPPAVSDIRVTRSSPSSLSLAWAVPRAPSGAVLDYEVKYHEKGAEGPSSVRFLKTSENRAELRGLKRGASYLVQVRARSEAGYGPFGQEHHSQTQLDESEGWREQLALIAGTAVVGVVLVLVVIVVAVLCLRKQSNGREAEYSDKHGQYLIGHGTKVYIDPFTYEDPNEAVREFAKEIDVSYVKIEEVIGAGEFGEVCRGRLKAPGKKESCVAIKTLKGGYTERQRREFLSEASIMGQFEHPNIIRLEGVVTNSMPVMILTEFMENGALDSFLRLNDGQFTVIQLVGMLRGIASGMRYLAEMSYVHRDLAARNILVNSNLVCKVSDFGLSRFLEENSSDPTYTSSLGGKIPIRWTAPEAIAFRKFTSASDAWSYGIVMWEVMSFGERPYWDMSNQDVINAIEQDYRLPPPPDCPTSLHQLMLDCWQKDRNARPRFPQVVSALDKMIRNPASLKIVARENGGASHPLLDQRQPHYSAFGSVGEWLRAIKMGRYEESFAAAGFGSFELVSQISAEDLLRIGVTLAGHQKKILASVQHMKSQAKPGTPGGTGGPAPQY", "chain of UniProt Q96PF2 (whole entry, looked up)": "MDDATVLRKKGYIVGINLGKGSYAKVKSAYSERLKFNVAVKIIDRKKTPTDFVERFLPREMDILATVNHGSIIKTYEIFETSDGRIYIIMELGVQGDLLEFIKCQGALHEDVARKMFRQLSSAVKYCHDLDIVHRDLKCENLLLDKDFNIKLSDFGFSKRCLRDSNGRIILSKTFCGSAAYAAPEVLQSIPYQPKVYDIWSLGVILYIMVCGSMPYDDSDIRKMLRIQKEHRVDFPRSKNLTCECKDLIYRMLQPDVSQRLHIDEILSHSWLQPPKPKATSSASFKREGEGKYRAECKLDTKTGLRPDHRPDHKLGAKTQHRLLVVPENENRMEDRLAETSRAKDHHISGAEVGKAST"}
{"data": "Study 1", "target": "Calcium/calmodulin-dependent protein kinase type II subunit alpha (CAMK2A, Homo sapiens, UniProt Q9UQM7)", "read-out": "enzyme activity", "mode": "inhibitor", "tested at": "10 µM", "chain of UniProt Q9UQM7 (whole entry, looked up)": "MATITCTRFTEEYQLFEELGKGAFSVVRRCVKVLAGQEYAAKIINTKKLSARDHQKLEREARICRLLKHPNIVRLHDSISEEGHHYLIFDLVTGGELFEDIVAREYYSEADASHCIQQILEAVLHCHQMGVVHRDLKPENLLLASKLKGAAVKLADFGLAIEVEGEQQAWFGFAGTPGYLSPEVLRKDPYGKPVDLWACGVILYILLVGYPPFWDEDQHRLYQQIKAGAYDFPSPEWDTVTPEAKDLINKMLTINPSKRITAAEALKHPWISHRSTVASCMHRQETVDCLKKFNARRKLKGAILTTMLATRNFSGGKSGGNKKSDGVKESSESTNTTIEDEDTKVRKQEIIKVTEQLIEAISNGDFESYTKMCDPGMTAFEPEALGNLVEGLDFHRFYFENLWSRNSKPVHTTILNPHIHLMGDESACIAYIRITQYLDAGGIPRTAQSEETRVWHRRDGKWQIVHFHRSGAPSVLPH"}
{"Compound": "O=c1c(O)c(-c2ccc(O)cc2O)oc2cc(O)cc(O)c12", "inhibition": "84%"}
{"Compound": "COc1cc(C(C)=O)ccc1O", "inhibition": "-11%"}
{"Compound": "Cc1occc1SSc1ccoc1C", "inhibition": "-5%"}
{"Compound": "C[C@@H]1O[C@@H](c2c(O)c([C@@H]3O[C@H](CO)[C@@H](O)[C@H](O)[C@H]3O)c3oc(-c4ccc(O)cc4)cc(=O)c3c2O)[C@H](O)[C@H](O)[C@H]1O", "inhibition": "16%"}
{"Compound": "Cc1cccc(C)c1NC(=O)c1cc(S(N)(=O)=O)c(Cl)cc1O", "inhibition": "-14%"}
{"Compound": "COc1cc2oc3cc(O)c(OC)c(CC=C(C)C)c3c(=O)c2c(O)c1CC=C(C)C", "inhibition": "-3%"}
{"Compound": "C[N+](C)(C)[C@@H](Cc1c[nH]c(=S)[nH]1)C(=O)[O-]", "inhibition": "-17%"}
{"Compound": "CC1(C)[C@@H](O[C@@H]2OC[C@H](O[C@@H]3O[C@H](CO)[C@@H](O)[C@H](O)[C@H]3O[C@@H]3OC[C@@H](O)[C@H](O)[C@H]3O)[C@H](O)[C@H]2O[C@@H]2O[C@H](CO)[C@@H](O)[C@H](O)[C@H]2O)CC[C@]2(C)[C@H]3CC[C@]45OC[C@@]6(CC[C@](C)(C=O)C[C@H]64)[C@H](O)C[C@@]5(C)[C@]3(C)CC[C@@H]12", "inhibition": "-89%"}
{"Compound": "O=C(O)c1cc(O)c2c(c1)[C@H]([C@H]1c3cccc(O)c3C(=O)c3c(O)cc(C(=O)O)cc31)c1cccc(O)c1C2=O", "inhibition": "-27%"}
{"data": "Study 2", "SMILES": "N=C(N)NC(=O)c1cnn(-c2cccc3ncccc23)c1C1CC1", "read-out": "β-arrestin recruitment", "mode": "agonist", "method": "PRESTO-Tango", "tested at": "10 µM", "reference": "untreated"}
{"target": "Adhesion G-protein coupled receptor G5 (ADGRG5, Homo sapiens, UniProt Q8IZF4)", "fold over basal": 0.87}
{"target": "NTSR1 (Homo sapiens, UniProt P30989)", "fold over basal": 1}
{"target": "Probable G-protein coupled receptor 162 (GPR162, Homo sapiens, UniProt Q16538)", "fold over basal": 0.93}
{"target": "CCKAR (Homo sapiens, UniProt P32238)", "fold over basal": 1.17}
{"target": "Probable G-protein coupled receptor 25 (GPR25, Homo sapiens, UniProt O00155)", "fold over basal": 0.87}
{"target": "HTR5A (Homo sapiens, UniProt P47898)", "fold over basal": 0.98}
{"target": "HTR2A (Homo sapiens, UniProt P28223)", "fold over basal": 0.79}
{"target": "FSHR (Homo sapiens, UniProt P23945)", "fold over basal": "1.54 fold"}
{"target": "HTR1B (Homo sapiens, UniProt P28222)", "fold over basal": 1.19}
{"data": "Study 3", "Compound": "Cc1cc(-n2nc(Cc3cc(F)cc(C(F)(F)F)c3)nc2C)ccc1C(N)=O", "read-out": "cell-free assay", "method": "competition with immobilised ligand", "tested at": "1 µM"}
{"target": "FLT3 (Homo sapiens, UniProt P36888, D835Y)", "remaining binding [%]": 100}
{"target": "Aurora kinase B (AURKB, Homo sapiens, UniProt Q96GD4)", "remaining binding [%]": 87}
{"target": "CLK2 (Homo sapiens, UniProt P49760)", "remaining binding [%]": 94}
{"target": "Aurora kinase A (AURKA, Homo sapiens, UniProt O14965)", "remaining binding [%]": 99}
{"target": "TNNI3K (Homo sapiens, UniProt Q59H18)", "remaining binding [%]": 100}
{"target": "CAMKK2 (Homo sapiens, UniProt Q96RR4)", "remaining binding [%]": 100}
{"target": "DDR2 (Homo sapiens, UniProt Q16832)", "remaining binding [%]": 100}
{"target": "EIF2AK2 (Homo sapiens, UniProt P19525)", "remaining binding [%]": 62}
{"target": "DAPK3 (Homo sapiens, UniProt O43293)", "remaining binding [%]": 87}
{"target": "FER (Homo sapiens, UniProt P16591)", "remaining binding [%]": 79}
{"target": "FLT3 (Homo sapiens, UniProt P36888, D835V)", "remaining binding [%]": 100}
{"target": "Tyrosine-protein kinase ABL1, phosphorylated (ABL1, Homo sapiens, UniProt P00519)", "remaining binding [%]": 100}
{"target": "RET (Homo sapiens, UniProt P07949, M918T)", "remaining binding [%]": 100}
{"data": "Study 4", "SMILES": "COc1cc2ncnc(Nc3cccc(Cl)c3)c2cc1OC", "read-out": "enzyme activity", "mode": "inhibitor", "tested at": "0.5 µM", "reference": "control"}
{"target": "EPHA4 (Homo sapiens, UniProt P54764)", "remaining activity": "81.7%"}
{"target": "HIPK4 (Homo sapiens, UniProt Q8NE63)", "remaining activity": "64.4%"}
{"target": "BLK (Homo sapiens, UniProt P51451)", "remaining activity": "68.2%"}
{"target": "PDPK1 (Homo sapiens, UniProt O15530)", "remaining activity": "81.9%"}
{"target": "EPHB1 (Homo sapiens, UniProt P54762)", "remaining activity": "82.8%"}
{"target": "STK17A (Homo sapiens, UniProt Q9UEE5)", "remaining activity": "95.4%"}
{"target": "Cyclin-dependent kinase 1, with cyclin B (CDK1, Homo sapiens, UniProt P06493)", "remaining activity": "90.3%"}
{"target": "EPHB4 (Homo sapiens, UniProt P54760)", "remaining activity": "59.7%"}
{"target": "TSSK2 (Homo sapiens, UniProt Q96PF2)", "remaining activity": "94.8%"}
{"target": "PHKG1 (Homo sapiens, UniProt Q16816)", "remaining activity": "88.9%"}
{"target": "SRMS (Homo sapiens, UniProt Q9H3Y6)", "remaining activity": "93.8%"}
{"target": "RPS6KA5 (Homo sapiens, UniProt O75582)", "remaining activity": "97.8%"}
{"target": "HIPK2 (Homo sapiens, UniProt Q9H2X6)", "remaining activity": "88.8%"}
{"target": "WNK3 (Homo sapiens, UniProt Q9BYP7)", "remaining activity": "97.8%"}
{"target": "PRKACG (Homo sapiens, UniProt P22612)", "remaining activity": "87.9%"}
{"target": "AXL (Homo sapiens, UniProt P30530)", "remaining activity": "95.3%"}
{"target": "STK16 (Homo sapiens, UniProt O75716)", "remaining activity": "101%"}
{"target": "RPS6KA6 (Homo sapiens, UniProt Q9UK32)", "remaining activity": "90.5%"}
{"target": "DYRK3 (Homo sapiens, UniProt O43781)", "remaining activity": "96.3%"}
{"target": "MAP4K4 (Homo sapiens, UniProt O95819)", "remaining activity": "68.1%"}
{"target": "MAPKAPK3 (Homo sapiens, UniProt Q16644)", "remaining activity": "92.7%"}
{"target": "Cyclin-dependent kinase 6, with cyclin D3 (CDK6, Homo sapiens, UniProt Q00534)", "remaining activity": "90.1%"}
{"target": "CAMK2B (Homo sapiens, UniProt Q13554)", "remaining activity": "91.2%"}
